Experimental data gathered from unrelated publications.
Compare with care: the assays were run in different laboratories. Values joined by “and” are separate records of one study, mostly repeats; a detail may differ. Numbers after ± are the reported error.
TDO2: Tryptophan 2,3-dioxygenase (TDO2, Homo sapiens, UniProt P48775)
MEP cytidylyltransferase IspD: MEP cytidylyltransferase IspD (Plasmodium falciparum, UniProt Q8I273)
FGFR1: Fibroblast growth factor receptor 1 (FGFR1, Homo sapiens, UniProt P11362)
TMPRSS11D: Transmembrane protease serine 11D (TMPRSS11D, Homo sapiens, UniProt O60235)
Grm5: Metabotropic glutamate receptor 5 (Grm5, Rattus norvegicus, UniProt P31424)
DDR1: Epithelial discoidin domain-containing receptor 1 (DDR1, Homo sapiens, UniProt Q08345)

SMILES	target	assay	test system	setting	IC50
COc1c(O)cc(-c2cc(=O)c3c(O)cc(O)cc3o2)cc1O	iunh (Leishmania donovani, UniProt Q8WQX2)	enzyme activity, inhibitor, absorbance			1060 nM and 1100 nM
CC/C(=C\c1ccc(OCC(=O)NC(C(=O)N2CCOCC2)c2ccccc2)cc1)[N+](=O)[O-] (stereo not shown)	Papain (Carica papaya, UniProt P00784)	enzyme activity, inhibitor, fluorescence		pH 5.5	11700 nM
O=C(NCCCN1CCC(Cc2ccccc2)CC1)c1cc(Cl)cc(Cl)c1	SLC6A4 (Homo sapiens, UniProt P31645)	transporter uptake			190 to 840 nM
COC1=Cc2c(cc(O)c3cc(C)c(OC)cc23)C(C)(C)C1=O	TDO2	enzyme activity, inhibitor			91100 nM
O=C(CS(=O)(=O)Cc1ccco1)C12CC3CC(CC(C3)C1)C2	HSD11B1 (Homo sapiens, UniProt P28845)	enzyme activity in cells, inhibitor			36 nM and < 50 nM
OC(c1ccccc1)(c1cccs1)c1cccs1	Gap junction alpha-8 protein (Gja8, Mus musculus, UniProt P28236)	gap junction current, inhibitor, dual whole-cell voltage clamp	transfected mouse N2a cell pairs		10000 nM
CO[C@H]1O[C@H](CNC(=O)c2ccc3ccccc3c2)[C@@H](O)[C@H](O)[C@@H]1O	lecB (Pseudomonas aeruginosa, UniProt Q9HYN5)	ligand displacement, FP			31000 nM
O=c1c(OCc2ccccc2)c(-c2ccc([N+](=O)[O-])cc2)oc2ccccc12	β-glucosidase	enzyme activity, inhibitor			370 ± 130 nM
COc1ccc([C@H]2N[C@H](C(=O)O)Cc3c2[nH]c2ccccc32)c(OC)c1	MEP cytidylyltransferase IspD	enzyme activity, inhibitor, fluorimetric pyrophosphate		60 nM enzyme	> 5000 nM
CC(=O)CSCCNC(=O)CCNC(=O)C(O)C(C)(C)COP(=O)(O)OP(=O)(O)OCC1OC(n2cnc3c(N)ncnc32)C(O)C1OP(=O)(O)O (stereo not shown)	N-alpha-acetyltransferase 50 (Homo sapiens, UniProt Q9GZZ1)	enzyme activity, inhibitor			130000 nM
CCCN(CC(=O)N(CC(N)=O)Cc1cn(CCCNC(=O)CCCOc2cccc(-c3nc4ccc(-c5nc6ccc(N7CCN(C)CC7)cc6[nH]5)cc4[nH]3)c2)nn1)C(=O)CNCc1cn(CCCNC(=O)CCCOc2cccc(-c3nc4ccc(-c5nc6ccc(N7CCN(C)CC7)cc6[nH]5)cc4[nH]3)c2)nn1	MBNL1–r(CUG)109 complex	MBNL1 displacement		with: bulk yeast tRNA competitor	25000 ± 6000 nM
COc1cc2nccc(Oc3ccc(NC(=S)Nc4cccnc4)c(Cl)c3)c2cc1C(N)=O	FGFR1				2670 nM
O=C(NO)[C@H](Cc1ccc(O)cc1)n1cc(CNS(=O)(=O)c2ccc(-c3ccccn3)s2)nn1	ERAP2 (Homo sapiens, UniProt Q6P179)	enzyme activity, inhibitor, fluorescence			470 nM
C=C1CN(S(=O)(=O)c2ccc(C)cc2)CCCN(Cc2ccccc2)CCCN(S(=O)(=O)c2ccc(C)cc2)C1	CD4 (Homo sapiens, UniProt P01730)	protein level, flow cytometry			790 nM
Cc1cccc(C(=O)Nc2ccc(CN)cc2)c1O	TMPRSS11D	enzyme activity, inhibitor		15 min preincubation, with: Boc-VPR-AMC 100 µM	42100 ± 2900 nM
COc1ccc(S(=O)(=O)Nc2nc(-c3cccc([N+](=O)[O-])c3)cs2)cc1OC	KMO (Homo sapiens, UniProt O15229)	enzyme activity, inhibitor, absorbance			4960 nM
CCCCc1ccc(S(=O)(=O)N2CC2C(=O)N(C)C)cc1 (stereo not shown)	P4HB (Homo sapiens, UniProt P07237)	enzyme activity, inhibitor, absorbance		pH 7.6	160000 nM
NCc1cccc(C2CCN(C(=O)c3cccc(NC(=O)C(=O)C4(O)CCC4)c3)CC2)c1	Tryptase beta-1 (Homo sapiens, UniProt Q15661)	enzyme activity, inhibitor		tryptase 100 pM, with: AMC substrate	42.2 nM
COc1ccc2c3c(c(Cc4ccc(Cl)cc4)[nH]c13)CCN(CCC(=O)O)C2=O	PDE5A (Homo sapiens, UniProt O76074)	enzyme activity, inhibitor			32 nM
CNC(=S)Nc1cccc([N+](=O)[O-])c1	Urea transporter 1 (Slc14a1, Rattus norvegicus, UniProt P97689)	urea transport, inhibitor	rat erythrocytes	15 min	300000 ± 100000 nM
C[C@@H](O)[C@H](NC(=O)CP(=O)(O)OC[C@H]1O[C@@H](n2cnc3c(N)ncnc32)[C@H](O)[C@@H]1O)C(=O)O	tsaD/tsaC, with TsaB and TsaE (Escherichia coli, UniProt P05852+P45748)	HPLC		pH 7.5, 23 °C, with: 0.1 mM ATP	400 nM
CC(C)C(=O)SCCCCCC(NC(=O)OC(C)(C)C)C(=O)NC12CC3CC(CC(C3)C1)C2 (stereo not shown)	HDAC (Lucilia cuprina egg nuclear extract)	enzyme activity, inhibitor, fluorometric			> 100000 nM
CCC1(CC)C[C@@H](NC(=O)Nc2cccc3c(C)nccc23)c2cc(F)ccc2O1	Trpv1 (Rattus norvegicus, UniProt O35433)	calcium signal, antagonist, fluorescence			79.7 nM
COc1ccc(-c2nc(Nc3nc4ccccc4o3)ncc2C#N)cc1	Grm5	calcium signal, antagonist			223 nM
CN(Cc1cnc2ccccc2n1)C(=O)Nc1nc(-c2ccco2)n[nH]1	Single-stranded DNA cytosine deaminase (AICDA, Homo sapiens, UniProt Q9GZX7)	deaminase activity, inhibitor, alkaline cleavage	293T lysate, His-tagged AID	pH 7.2, 37 °C	460000 nM

SMILES	target	assay	test system	setting	IC50
O=C(Nc1ccc(C(=O)Nc2ccc(C(=O)Nc3ccc(S(=O)(=O)O)c4cc(S(=O)(=O)O)cc(S(=O)(=O)O)c34)cc2)cc1)Nc1ccc(C(=O)Nc2ccc(C(=O)Nc3ccc(S(=O)(=O)O)c4cc(S(=O)(=O)O)cc(S(=O)(=O)O)c34)cc2)cc1	Neutrophil elastase (ELANE, Homo sapiens, UniProt P08246)	enzyme activity, inhibitor		extrapolated to no NaCl	~4.4 nM
Cc1ccc(C(=O)Nc2ccc(CP(=O)(O)O)cc2CP(=O)(O)O)cc1NC(=O)c1cccc(NC(=O)Nc2cccc(C(=O)Nc3cc(C(=O)Nc4ccc(CP(=O)(O)O)cc4CP(=O)(O)O)ccc3C)c2)c1	F13A1 (Homo sapiens, UniProt P00488)	enzyme activity, inhibitor, fluorescence			> 200000 nM
CC[C@H](C)[C@H](NC(=O)[C@H](CCSC)NC(=O)[C@H](Cc1ccc(O)cc1)NC(=O)[C@H](CO)NC(=O)[C@H](CC(=O)O)NC(=O)[C@@H](NC(=O)[C@H](CC(=O)O)NC(=O)[C@H](CC(=O)O)NC(=O)[C@H](CC(N)=O)NC(=O)[C@H](C)NC(=O)[C@H](Cc1ccccc1)NC(=O)[C@H](CC(=O)O)NC(C)=O)[C@@H](C)CC)C(=O)N[C@@H](C)C(=O)N[C@@H](CCSC)C(=O)N[C@@H](CCC(=O)O)C(N)=O	Replication protein A 70 kDa DNA-binding subunit, N-terminal domain (RPA1, Homo sapiens, UniProt P27694)	binding, fluorescence polarization		1 h, with: FITC-ATRIP	102000 ± 13600 nM
CC[C@H](C)[C@H](NC(=O)[C@H](CO)NC(=O)[C@@H](Cc1cccnc1)NC(=O)[C@@H](Cc1ccc(Cl)cc1)NC(=O)[C@@H](Cc1ccc2ccccc2c1)NC(C)=O)C(=O)N[C@H](CCCCNC(C)C)C(=O)N[C@@H](CC(C)C)C(=O)N[C@@H](CCCCNC(C)C)C(=O)N1CCC[C@H]1C(=O)N[C@H](C)C(N)=O	Gonadotropin-releasing hormone receptor III (Gallus gallus, UniProt Q5EFE0)	inositol phosphate production, antagonist	COS-7 transfected	with: GnRH-II 1 nM	3890 ± 2030 nM
CCCN(c1ccc(C(=O)NCCC(=O)O)cc1)S(=O)(=O)c1cc(C)c(-c2ccc(C(C)(C)C)cc2)c(C)c1	Glucagon receptor (GCGR, Homo sapiens, UniProt P47871)	cAMP, antagonist			8400 nM
COc1cc2nccc(Oc3ccc(NC(=S)NC4CC4)c(Cl)c3)c2cc1C(=O)N(C)C	FGFR1				8130 nM
O=C(CCCCCCN(Cc1cccnc1)Cc1cccnc1)NO	HDAC3 (Homo sapiens, UniProt O15379)	enzyme activity, inhibitor, fluorescence			480 nM
COc1cc2nccc(Oc3ccc(NC(=S)NC4CC4)c(Cl)c3)c2cc1C(=O)NCC(F)(F)F	FGFR1				4440 nM
Cc1ccc(CNC(=O)[C@@H](NC(=O)[C@H](CCc2ccccc2)NC(=O)[C@H](CCc2ccccc2)N(C)Cc2cnccn2)C(C)C)cc1	20S proteasome (Plasmodium falciparum, UniProt A0A5K1K7U1+Q8IJT1)	β5 activity, inhibitor		with: Suc-LLVY-AMC, PA28α-activated	78.9 nM
N=C(N)SCc1cccc(CSC(=N)N)c1	TDO2			with: L-tryptophan 2 mM	> 30000 nM
CC(C)S(=O)(=O)c1ccc(S(=O)(=O)C(C)C)c(O)c(=O)c1O	Protein P, RNase H domain (P, Hepatitis B virus genotype D subtype ayw, UniProt P03156)	RNase H activity, inhibitor	Hepatitis B virus		254000 ± 26000 nM
COC(=O)N1CCC(CN2CCC(CNC(=O)c3cccc4[nH]c(C(C)C)nc34)CC2)CC1	SLC47A1 (Homo sapiens, UniProt Q96FL8)	transporter uptake, inhibitor			988 nM
Cc1cc([N+](=O)[O-])cn(CC(=O)c2cc3cc(Br)ccc3[nH]2)c1=O	RPA1 (Homo sapiens, UniProt P27694)	inhibitor, FRET			1120 ± 130 nM
Cc1ccc(C(=O)Nc2ccc(CN)cc2)c(O)c1	TMPRSS11D	enzyme activity, inhibitor		15 min preincubation, with: Boc-VPR-AMC 100 µM	18900 ± 1000 nM
CN1Cc2c(Cl)cc(Cl)cc2C(c2ccc(S(=O)(=O)NCCOCCOCCOCCNC(=O)C(O)C(O)C(=O)NCCOCCOCCOCCNS(=O)(=O)c3ccc(C4CN(C)Cc5c(Cl)cc(Cl)cc54)cc3)cc2)C1 (stereo not shown)	Sodium/hydrogen exchanger 3 (Rattus norvegicus, UniProt P26433)	intracellular pH recovery, inhibitor, pH-sensitive dye	opossum kidney cells, transfected		63.1 nM
O=C(Nc1cccc(COc2cccnc2)c1)Nc1ccc(Cl)c(Cl)c1	DDR1	enzyme activity, inhibitor, mobility shift			171 nM
COc1cc(N2CCN(C)CC2)ccc1Nc1ncc2c(n1)N(C)c1ccc(C)cc1C(=O)N2CC(F)(F)F	DCLK2 (Homo sapiens, UniProt Q8N568)	binding, KINOMEscan			1400 nM
COc1cc2nccc(Oc3ccc(NC(=S)N4CCC(F)(F)C4)c(Cl)c3)c2cc1C(N)=O	FGFR1				476 nM
CNC(=O)C(Cc1ccc(I)cc1)NC(=O)CNC1CCN(C(=O)OC(C)(C)C)CC1 (stereo not shown)	DDR1	cell-free assay			1200 nM
O=C1CC(c2ccoc2)c2ccc(NC(=O)c3ccccc3)cc2N1 (stereo not shown)	Aromatase (CYP19A1, Homo sapiens, UniProt P11511)	enzyme activity, inhibitor, fluorescence			72000 nM and 72900 nM
CNC(=O)[C@@H]1Cc2c([nH]c3ccccc23)[C@@H](c2ccc(Cl)cc2Cl)N1	MEP cytidylyltransferase IspD	enzyme activity, inhibitor, fluorimetric pyrophosphate			57 ± 10 nM
Cc1cccc(-c2nc(Nc3nc4ccccc4o3)ncc2C#N)c1	Grm5	calcium signal, antagonist			138 nM
C=CCNC(=O)[C@H](CCc1ccccc1)NC(=O)[C@H](CC(=O)NCC(C)(C)C)NC(=O)CCc1ccccc1	Proteasome subunit beta type-10 / Proteasome subunit beta type-3 (Homo sapiens, UniProt P40306+P49720)	inhibitor			> 100000 nM
C=CC(=O)N1CCc2ccc(-n3c(=O)ccc4cnc5ccc(-c6cnn(C)c6)cc5c43)cc21	FER (Homo sapiens, UniProt P16591)	enzyme activity, inhibitor			> 10000 nM

A few entries again:
SMILES	target	assay	test system	setting	IC50
COC1=Cc2c(cc(O)c3cc(C)c(OC)cc23)C(C)(C)C1=O	TDO2	enzyme activity, inhibitor			91100 nM
CC(=O)CSCCNC(=O)CCNC(=O)C(O)C(C)(C)COP(=O)(O)OP(=O)(O)OCC1OC(n2cnc3c(N)ncnc32)C(O)C1OP(=O)(O)O (stereo not shown)	N-alpha-acetyltransferase 50 (Homo sapiens, UniProt Q9GZZ1)	enzyme activity, inhibitor			130000 nM
O=C(Nc1cccc(COc2cccnc2)c1)Nc1ccc(Cl)c(Cl)c1	DDR1	enzyme activity, inhibitor, mobility shift			171 nM
